{"data": "Measurements pooled from the literature", "DNMT3A catalytic domain": "DNA (cytosine-5)-methyltransferase 3A, catalytic domain (DNMT3A, Homo sapiens, UniProt Q9Y6K1)", "SIRT6": "NAD-dependent protein deacylase sirtuin-6 (SIRT6, Homo sapiens, UniProt Q8N6T7)", "CDK2 with cyclin A2": "Cyclin-dependent kinase 2, with cyclin A2 (CDK2, Homo sapiens, UniProt P24941)", "Genome polyprotein NS2B-NS3 protease": "Genome polyprotein, NS2B-NS3 protease (Dengue virus type 2, UniProt P14340)", "AKR1C3": "Aldo-keto reductase family 1 member C3 (AKR1C3, Homo sapiens, UniProt P42330)", "MAL12": "Alpha-glucosidase MAL12 (MAL12, Saccharomyces cerevisiae S288c, UniProt P53341)", "Sialyltransferase ST3Gal-I": "Sialyltransferase ST3Gal-I (Rattus norvegicus, UniProt Q6H8N0)", "Ectonucleoside triphosphate diphosphohydrolase 2": "Ectonucleoside triphosphate diphosphohydrolase 2 (Homo sapiens, UniProt Q9Y5L3)", "note": "Compare with care: the assays were run in different laboratories. ± marks the error that the study gave.", "chain of UniProt Q8N6T7 (whole entry, looked up)": "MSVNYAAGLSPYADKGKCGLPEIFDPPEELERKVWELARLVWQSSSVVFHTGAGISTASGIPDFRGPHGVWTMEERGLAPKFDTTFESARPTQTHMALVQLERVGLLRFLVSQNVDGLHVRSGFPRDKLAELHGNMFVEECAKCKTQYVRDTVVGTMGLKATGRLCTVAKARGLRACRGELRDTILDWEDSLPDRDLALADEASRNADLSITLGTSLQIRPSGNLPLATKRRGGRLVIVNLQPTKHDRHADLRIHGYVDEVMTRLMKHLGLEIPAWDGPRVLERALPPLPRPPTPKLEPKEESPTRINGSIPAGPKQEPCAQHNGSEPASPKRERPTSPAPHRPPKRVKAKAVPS", "chain of UniProt P42330 (whole entry, looked up)": "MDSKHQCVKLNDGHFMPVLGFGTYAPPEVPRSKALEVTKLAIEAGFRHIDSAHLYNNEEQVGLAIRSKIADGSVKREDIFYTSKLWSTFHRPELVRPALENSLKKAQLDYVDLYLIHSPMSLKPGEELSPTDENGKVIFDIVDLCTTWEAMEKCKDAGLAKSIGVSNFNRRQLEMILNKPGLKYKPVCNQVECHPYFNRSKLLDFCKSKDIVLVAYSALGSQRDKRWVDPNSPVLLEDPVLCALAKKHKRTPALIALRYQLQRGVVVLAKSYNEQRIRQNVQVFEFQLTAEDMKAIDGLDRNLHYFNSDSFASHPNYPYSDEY", "chain of UniProt P53341 (whole entry, looked up)": "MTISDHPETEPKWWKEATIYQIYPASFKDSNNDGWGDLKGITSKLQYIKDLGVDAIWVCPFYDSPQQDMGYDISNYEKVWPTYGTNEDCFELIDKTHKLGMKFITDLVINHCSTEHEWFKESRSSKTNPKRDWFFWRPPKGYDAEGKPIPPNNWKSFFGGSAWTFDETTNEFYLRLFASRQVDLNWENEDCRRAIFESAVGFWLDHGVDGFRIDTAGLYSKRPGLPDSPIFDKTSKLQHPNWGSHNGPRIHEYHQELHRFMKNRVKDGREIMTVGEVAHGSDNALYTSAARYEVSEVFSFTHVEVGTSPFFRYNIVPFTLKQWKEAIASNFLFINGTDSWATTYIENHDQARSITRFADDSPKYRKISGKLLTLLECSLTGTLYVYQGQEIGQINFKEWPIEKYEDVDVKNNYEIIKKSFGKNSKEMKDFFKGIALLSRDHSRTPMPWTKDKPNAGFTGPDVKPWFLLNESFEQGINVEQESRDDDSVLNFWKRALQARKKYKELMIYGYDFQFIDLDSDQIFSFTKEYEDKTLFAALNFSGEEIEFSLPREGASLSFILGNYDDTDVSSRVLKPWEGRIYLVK", "chain of UniProt Q9Y5L3 (whole entry, looked up)": "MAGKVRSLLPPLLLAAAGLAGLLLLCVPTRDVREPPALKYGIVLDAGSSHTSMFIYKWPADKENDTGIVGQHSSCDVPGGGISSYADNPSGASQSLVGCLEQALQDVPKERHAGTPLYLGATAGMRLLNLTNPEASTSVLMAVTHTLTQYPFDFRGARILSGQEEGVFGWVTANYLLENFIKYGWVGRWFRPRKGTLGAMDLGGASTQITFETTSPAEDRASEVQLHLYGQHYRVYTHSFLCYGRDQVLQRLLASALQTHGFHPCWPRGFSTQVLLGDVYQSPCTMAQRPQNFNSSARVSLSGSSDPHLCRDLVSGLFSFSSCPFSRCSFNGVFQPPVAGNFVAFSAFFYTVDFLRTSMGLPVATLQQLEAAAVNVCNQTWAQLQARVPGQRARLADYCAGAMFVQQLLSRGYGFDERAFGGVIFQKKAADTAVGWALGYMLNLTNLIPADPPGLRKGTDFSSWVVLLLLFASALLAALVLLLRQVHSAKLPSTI", "chain of UniProt Q9UM07 (whole entry, looked up)": "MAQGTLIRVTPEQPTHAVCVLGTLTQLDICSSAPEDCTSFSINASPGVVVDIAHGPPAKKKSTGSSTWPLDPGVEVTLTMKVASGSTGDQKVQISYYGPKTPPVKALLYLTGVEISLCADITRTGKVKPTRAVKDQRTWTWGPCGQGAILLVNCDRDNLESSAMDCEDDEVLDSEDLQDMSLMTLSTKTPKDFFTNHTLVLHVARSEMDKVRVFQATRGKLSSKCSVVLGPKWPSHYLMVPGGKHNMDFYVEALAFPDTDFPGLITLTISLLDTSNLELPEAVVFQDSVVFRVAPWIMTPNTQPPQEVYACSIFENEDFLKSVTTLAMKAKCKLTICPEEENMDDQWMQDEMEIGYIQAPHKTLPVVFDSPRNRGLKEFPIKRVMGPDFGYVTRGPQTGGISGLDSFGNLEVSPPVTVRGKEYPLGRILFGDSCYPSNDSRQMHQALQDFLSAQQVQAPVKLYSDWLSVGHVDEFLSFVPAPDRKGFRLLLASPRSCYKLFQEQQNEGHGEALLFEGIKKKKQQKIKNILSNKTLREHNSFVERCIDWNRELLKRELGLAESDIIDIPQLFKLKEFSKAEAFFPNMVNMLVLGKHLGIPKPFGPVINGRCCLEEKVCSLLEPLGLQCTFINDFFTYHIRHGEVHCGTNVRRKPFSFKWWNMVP", "chain of UniProt P07711 (whole entry, looked up)": "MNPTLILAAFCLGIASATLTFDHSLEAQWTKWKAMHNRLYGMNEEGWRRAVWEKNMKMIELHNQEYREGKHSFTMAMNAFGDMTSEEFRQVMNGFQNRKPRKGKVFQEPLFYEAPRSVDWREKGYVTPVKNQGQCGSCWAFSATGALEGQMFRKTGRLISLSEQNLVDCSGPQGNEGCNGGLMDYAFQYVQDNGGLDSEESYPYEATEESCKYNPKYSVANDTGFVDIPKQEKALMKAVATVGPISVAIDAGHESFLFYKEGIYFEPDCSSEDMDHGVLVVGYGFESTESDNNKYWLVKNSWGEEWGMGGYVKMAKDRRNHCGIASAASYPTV", "chain of UniProt P13866 (whole entry, looked up)": "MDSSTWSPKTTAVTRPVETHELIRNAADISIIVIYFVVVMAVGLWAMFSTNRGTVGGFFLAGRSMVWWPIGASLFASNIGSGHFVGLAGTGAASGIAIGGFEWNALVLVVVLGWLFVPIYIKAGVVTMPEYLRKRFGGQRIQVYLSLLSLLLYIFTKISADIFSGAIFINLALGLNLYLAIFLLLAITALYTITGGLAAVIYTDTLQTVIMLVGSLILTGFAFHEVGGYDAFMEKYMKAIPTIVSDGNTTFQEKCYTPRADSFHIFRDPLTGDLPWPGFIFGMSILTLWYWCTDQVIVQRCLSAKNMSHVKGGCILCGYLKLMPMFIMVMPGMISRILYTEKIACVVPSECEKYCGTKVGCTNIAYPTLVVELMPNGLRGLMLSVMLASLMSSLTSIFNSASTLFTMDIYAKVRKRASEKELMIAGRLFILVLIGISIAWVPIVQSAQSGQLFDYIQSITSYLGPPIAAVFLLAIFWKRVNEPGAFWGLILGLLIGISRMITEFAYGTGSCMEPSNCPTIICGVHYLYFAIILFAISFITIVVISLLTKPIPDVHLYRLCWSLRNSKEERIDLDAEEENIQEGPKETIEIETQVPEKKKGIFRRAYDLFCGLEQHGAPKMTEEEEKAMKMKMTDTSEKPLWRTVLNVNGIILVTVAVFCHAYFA", "chain of UniProt P28223 (whole entry, looked up)": "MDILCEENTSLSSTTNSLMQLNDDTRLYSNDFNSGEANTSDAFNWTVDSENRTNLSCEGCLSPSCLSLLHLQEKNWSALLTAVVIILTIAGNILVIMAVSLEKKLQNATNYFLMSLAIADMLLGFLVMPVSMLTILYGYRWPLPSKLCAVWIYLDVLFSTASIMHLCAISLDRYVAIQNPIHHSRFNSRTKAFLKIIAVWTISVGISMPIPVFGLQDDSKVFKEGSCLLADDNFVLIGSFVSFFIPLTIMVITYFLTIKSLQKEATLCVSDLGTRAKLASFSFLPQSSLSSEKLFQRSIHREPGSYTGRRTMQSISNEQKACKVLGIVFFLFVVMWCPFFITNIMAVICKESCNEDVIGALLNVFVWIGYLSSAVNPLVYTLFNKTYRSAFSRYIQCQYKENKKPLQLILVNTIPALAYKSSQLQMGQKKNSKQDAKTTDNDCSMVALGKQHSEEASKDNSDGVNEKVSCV"}
{"Compound": "Cc1cc(Nc2ccc(NC(=O)c3ccc(Nc4c5ccccc5nc5ccccc45)cc3)cc2)nc(N)n1", "target": "DNMT3A catalytic domain", "test": "enzyme activity, inhibitor", "conditions": "32 µM", "inhibition": "53 ± 2%"}
{"Compound": "NC(=O)c1cn(CC(=O)NC[C@H](NC(=O)CCc2nc(-c3cccnc3)no2)c2ccccc2)c(=O)[nH]c1=O", "target": "SIRT6", "test": "demyristoylation", "conditions": "10 µM", "inhibition": "3%"}
{"Compound": "Clc1ccc(NN=C(c2ccccc2)c2ccccn2)nc1", "target": "TET1 (Homo sapiens, UniProt Q8NFU7)", "test": "enzyme activity, inhibitor, biochemical", "conditions": "concentration not given", "inhibition": "no inhibition"}
{"Compound": "Nc1ccccc1NC(=O)c1ccc(Nc2nccc(-c3cn(C4CCCC4)nn3)n2)cc1", "target": "CDK2 with cyclin A2", "test": "enzyme activity, inhibitor, TR-FRET", "conditions": "5 µM", "inhibition": "20.2%"}
{"Compound": "Oc1c(C(Nc2nccs2)c2ccccc2OCc2ccccc2)ccc2cccnc12 (centres unmarked)", "target": "Genome polyprotein NS2B-NS3 protease", "test": "enzyme activity, inhibitor, fluorogenic", "conditions": "10 µM, 0.1% CHAPS, together with: Bz-Nle-Lys-Arg-Arg-AMC substrate", "inhibition": "76.9 ± 1.52%"}
{"Compound": "C[C@@]12CC[C@@H]3c4ccc(O)cc4CC[C@H]3[C@@H]1CCC2=O", "target": "AKR1C3", "test": "enzyme activity, inhibitor, absorbance", "conditions": "100 µM, pH 9", "inhibition": "29.8%"}
{"Compound": "COc1ccc(-c2cc(C(F)(F)F)cc(S(=O)(=O)NCC(=O)Nc3ccc(C)cc3)n2)cc1", "target": "WRN (Homo sapiens, UniProt Q14191)", "test": "DNA unwinding, TAMRA dequenching", "conditions": "concentration not given", "inhibition": "inactive"}
{"Compound": "COc1ccc2c(c1)CC[C@@H]1[C@@H]2CC[C@@]2(C)C(=O)CC[C@@H]12", "target": "AKR1C3", "test": "enzyme activity, inhibitor, absorbance", "conditions": "10 µM, pH 9", "inhibition": "22.9%"}
{"Compound": "Cc1cc(Nc2ccc(NC(=O)c3ccc(NC(=O)c4cccnc4)cc3)cc2)nc(N)n1", "target": "DNMT3A catalytic domain", "test": "enzyme activity, inhibitor, restriction-based fluorescence", "conditions": "20 µM", "inhibition": "0%"}
{"Compound": "NC(=O)c1cn(CC(=O)NC[C@H](NC(=O)CCc2nc(-c3cccnc3)no2)C(=O)Nc2cccc(C(=O)NO)c2)c(=O)[nH]c1=O", "target": "SIRT6", "test": "demyristoylation", "conditions": "10 µM", "inhibition": "1%"}
{"Compound": "COc1cc2c(cc1Cl)[C@H]1CC[C@@]3(C)C(=O)CC[C@H]3[C@@H]1CC2", "target": "AKR1C3", "test": "enzyme activity, inhibitor, absorbance", "conditions": "10 µM, pH 9", "inhibition": "60%"}
{"Compound": "O=[N+]([O-])c1cccc(S(=O)(=O)NC[C@@H](O)[C@@H]2CCc3cc(F)ccc3O2)c1", "target": "PTGS2 (Ovis aries, UniProt P79208)", "test": "enzyme activity, inhibitor, absorbance", "conditions": "200 µM", "inhibition": "67.6%"}
{"Compound": "CC(C)CCC[C@@H](C)[C@H]1CCC([C@@H]2CC[C@H]3C[C@@H](O)CC[C@]3(C)[C@H]2O)[C@]1(C)CC(=O)O (some centres unmarked)", "target": "Bile acid receptor (NR1H4, Homo sapiens, UniProt Q96RI1)", "test": "reporter gene, antagonist, luciferase", "system": "HEK-293T", "conditions": "10 µM", "inhibition": "100%"}
{"Compound": "COc1cc(-c2oc3cc(O)cc(O)c3c(=O)c2OC)ccc1O", "target": "MAL12", "test": "enzyme activity, inhibitor, absorbance", "conditions": "100 µM", "inhibition": "96.8%"}
{"Compound": "COc1cc(C(=O)NC2CCC(N3CCN(CC4CCC5(CCCC5)C4)CC3)CC2)c(F)cc1Nc1ncc2c(n1)N(C1CCCC1(F)F)CC(F)(F)C(=O)N2C (centres unmarked)", "target": "PDGFRB (Homo sapiens, UniProt P09619)", "test": "cell-free assay, TR-FRET", "conditions": "10 µM", "inhibition": "5.71%"}
{"Compound": "Cc1ccc(S(=O)(=O)N2CCC2=O)cc1", "target": "Rhomboid protease AarA (Providencia stuartii, UniProt P46116)", "test": "enzyme activity, inhibitor, fluorogenic peptide", "conditions": "concentration not given", "inhibition": "inactive"}
{"Compound": "CC(C)Cn1cc(-c2nc(Nc3ccc(OCCCCCCC(=O)NO)cc3)ncc2F)nn1", "target": "CDK2 with cyclin A2", "test": "enzyme activity, inhibitor, TR-FRET", "conditions": "5 µM", "inhibition": "60%"}
{"Compound": "Oc1c(C(Nc2nc3ccccc3s2)c2ccccc2OCc2ccccc2)ccc2cccnc12 (centres unmarked)", "target": "Genome polyprotein NS2B-NS3 protease", "test": "enzyme activity, inhibitor, fluorogenic", "conditions": "25 µM, 0.1% CHAPS, together with: Bz-Nle-Lys-Arg-Arg-AMC substrate", "inhibition": "91.8 ± 1.18%"}
{"Compound": "C[C@]12CC[C@@H]3c4ccc(O)c(Br)c4CC[C@H]3[C@@H]1CCC2=O", "target": "AKR1C3", "test": "enzyme activity, inhibitor, absorbance", "conditions": "100 µM, pH 9", "inhibition": "8.3%"}
{"Compound": "COc1ccc2[nH]cc(C(C[C@@H](NC(=O)CC[C@@H](C)[C@H]3CC[C@H]4[C@@H]5CC[C@@H]6C[C@H](O)CC[C@]6(C)[C@H]5CC[C@]34C)C(=O)O)c3c[nH]c4ccc(OC)cc34)c2c1", "target": "Sialyltransferase ST3Gal-I", "test": "enzyme activity, inhibitor, UPLC", "conditions": "500 µM", "inhibition": "7%"}
{"Compound": "Nc1nc2cc(CC[C@H]3C[C@@H](n4ccc5c(N)ncnc54)[C@H](O)[C@@H]3O)ccc2cc1Br", "target": "PRMT7 (Homo sapiens, UniProt Q9NVM4)", "test": "enzyme activity, inhibitor", "conditions": "10 µM", "inhibition": "< 15%"}
{"Compound": "CC(=O)Nc1cc(COc2c(Cl)cc(CC(N)C(=O)O)cc2Cl)c2oc(-c3ccccc3)nc2c1 (centres unmarked)", "target": "SLC1A5 (Homo sapiens, UniProt Q15758)", "test": "L-alanine uptake", "system": "Xenopus oocytes", "conditions": "1 and 10 µM, 30 min, together with: L-[14C]alanine 50 µM", "inhibition": "no inhibition"}
{"Compound": "Cc1c(C)n(-c2ccc(Br)cc2)c2ncnc(N3CCC(C(N)C(=O)N4CCCC4)CC3)c12 (centres unmarked)", "target": "PADI4 (Homo sapiens, UniProt Q9UM07)", "test": "enzyme activity, inhibitor", "conditions": "40 µM", "inhibition": "56%"}
{"Compound": "S=C(Nc1cc(Cl)cc(Cl)c1)Nc1cccc2[nH]ccc12", "target": "Microtubule-associated protein tau, 2N3R isoform (MAPT, Homo sapiens, UniProt P10636)", "test": "tau fibril formation, ThT fluorescence", "conditions": "100 µM, tau at 10 µM", "inhibition": "97%"}
{"Compound": "OCc1ccccc1S[C@@H]1O[C@H](CO)[C@H](O)[C@H](O)[C@H]1O", "target": "SLC5A1 (Homo sapiens, UniProt P13866)", "test": "transporter uptake, inhibitor, radiometric", "system": "CHO", "conditions": "10 µM", "inhibition": "57.9%"}
{"Compound": "C[C@@]12CC[C@@H]3c4cc(I)c(O)cc4CC[C@H]3[C@@H]1CCC2=O", "target": "AKR1C3", "test": "enzyme activity, inhibitor, absorbance", "conditions": "10 µM, pH 9", "inhibition": "33.8%"}
{"Compound": "C[C@H](CCC(=O)N[C@H](CC(c1c[nH]c2ccc(OCc3ccccc3)cc12)c1c[nH]c2ccc(OCc3ccccc3)cc12)C(=O)O)[C@H]1CC[C@H]2[C@@H]3CC[C@@H]4C[C@H](O)CC[C@]4(C)[C@H]3CC[C@]12C", "target": "Sialyltransferase ST3Gal-I", "test": "enzyme activity, inhibitor, UPLC", "conditions": "500 µM", "inhibition": "4%"}
{"Compound": "Cc1cccc(/C=C/C(=O)c2cnn(-c3ccccc3)c2C)c1", "target": "MAL12", "test": "enzyme activity, inhibitor", "conditions": "350 µM", "inhibition": "37.1%"}
{"Compound": "C[C@@]12CC[C@@H]3c4cc(Br)c(O)cc4CC[C@H]3[C@@H]1CCC2=O", "target": "AKR1C3", "test": "enzyme activity, inhibitor, absorbance", "conditions": "10 µM, pH 9", "inhibition": "62.6%"}
{"Compound": "O=C(Nc1ccc(Cl)cc1)c1cccc(S(=O)(=O)NC2CC2)c1", "target": "Ectonucleoside triphosphate diphosphohydrolase 2", "test": "enzyme activity, inhibitor, absorbance", "conditions": "100 µM", "inhibition": "36%"}
{"Compound": "NOCC(=O)O", "target": "CBS (Homo sapiens, UniProt P35520)", "test": "enzyme activity, inhibitor, fluorescence", "conditions": "10 µM", "inhibition": "80%"}
{"Compound": "Cc1ccc(C(=O)Nc2ccc(CN)cc2)c(O)c1", "target": "Procathepsin L (CTSL, Homo sapiens, UniProt P07711)", "test": "enzyme activity, inhibitor", "conditions": "10 µM", "inhibition": "< 20%"}
{"Compound": "C[C@H](CCC(=O)N[C@H](CC(c1c[nH]c2ccc(NC(=O)OC(C)(C)C)cc12)c1c[nH]c2ccc(NC(=O)OC(C)(C)C)cc12)C(=O)O)[C@H]1CC[C@H]2[C@@H]3CC[C@@H]4C[C@H](O)CC[C@]4(C)[C@H]3CC[C@]12C", "target": "Sialyltransferase ST3Gal-I", "test": "enzyme activity, inhibitor, UPLC", "conditions": "500 µM", "inhibition": "2%"}
{"Compound": "O=C(O)c1cccc(S(=O)(=O)N2CCOCC2)c1", "target": "Ectonucleoside triphosphate diphosphohydrolase 2", "test": "enzyme activity, inhibitor, absorbance", "conditions": "100 µM", "inhibition": "8%"}
{"Compound": "COc1cc2c(cc1I)[C@H]1CC[C@@]3(C)C(=O)CC[C@H]3[C@@H]1CC2", "target": "AKR1C3", "test": "enzyme activity, inhibitor, absorbance", "conditions": "100 µM, pH 9", "inhibition": "50.8%"}
{"Compound": "N[C@H]1CCCc2c1[nH]c1ccc(Cl)cc21", "target": "HTR2A (Homo sapiens, UniProt P28223)", "test": "radioligand binding, antagonist radioligand displacement", "conditions": "10 µM", "inhibition": "38.1 ± 5.4%"}
{"Compound": "C[C@@]12CC[C@@H]3c4ccc(O)c(I)c4CC[C@H]3[C@@H]1CCC2=O", "target": "AKR1C3", "test": "enzyme activity, inhibitor, absorbance", "conditions": "10 µM, pH 9", "inhibition": "35.1%"}
{"Compound": "CNC(=O)c1ccccc1Oc1nc(Nc2cc(OC)c(OC)c(OC)c2)ncc1Br", "target": "NTRK1 (Homo sapiens, UniProt P04629)", "test": "enzyme activity, inhibitor", "conditions": "1 µM", "inhibition": "30 to 50%"}
{"Compound": "C[C@H](CCC(=O)N[C@H](CC(c1c[nH]c2ccc(Cl)cc12)c1c[nH]c2ccc(Cl)cc12)C(=O)O)[C@H]1CC[C@H]2[C@@H]3CC[C@@H]4C[C@H](O)CC[C@]4(C)[C@H]3CC[C@]12C", "target": "ST6GAL1 (Homo sapiens, UniProt P15907)", "test": "enzyme activity, inhibitor, UPLC", "conditions": "25 µM", "inhibition": "95%"}
{"Compound": "Nc1ccccc1NC(=O)c1ccc(Nc2nccc(-c3cn(C4CCCCC4)nn3)n2)cc1", "target": "CDK2 with cyclin A2", "test": "enzyme activity, inhibitor, TR-FRET", "conditions": "50 nM", "inhibition": "-7.71%"}
{"Compound": "CC(C)C[C@H](NC(=O)[C@@H]1CCCN1C(=O)[C@@H]1CCCN1C(=O)[C@H](CC(N)=O)NC(=O)[C@@H](N)Cc1ccc(Cl)c(Cl)c1)C(=O)N[C@@H](Cc1c[nH]cn1)C(=O)N[C@@H](CO)C(=O)N[C@H](C(=O)N[C@@H](C)C(=O)O)[C@@H](C)OP(=O)(O)O", "target": "PLK3 (Homo sapiens, UniProt Q9H4B4)", "test": "enzyme activity, inhibitor", "conditions": "10 µM", "inhibition": "6.92%"}
{"Compound": "O=C(N1CCCC1)n1cc(-c2ccc(-c3ccccc3)cc2)nn1", "target": "Platelet-activating factor acetylhydrolase 2, cytoplasmic (Mus musculus, UniProt Q8VDG7)", "test": "probe labelling, inhibitor, gel-based competitive ABPP", "system": "mouse T-cell proteome", "conditions": "10 nM, 30 min", "inhibition": "inhibited"}
{"Compound": "C=CC(=O)Nc1cccc(-c2cnc3[nH]cc(C(=O)NC(C)(C)C)c3n2)c1", "target": "JAK3 (Homo sapiens, UniProt P52333)", "test": "enzyme activity, inhibitor", "conditions": "0.1 µM", "inhibition": "> 90%"}
{"Compound": "NC(=O)c1ccc(C(=O)NOCc2ccc(Sc3cccc(Cl)c3)c(C(F)(F)F)c2)cc1", "target": "SIRT6", "test": "enzyme activity, inhibitor, fluorescence", "conditions": "100 µM", "inhibition": "98.3%"}
